Experimental data gathered from unrelated publications.
Each numbered part is a random draw from the data of one study; scales do not carry over between parts. Substitutions count along the parent as printed.

Study 1 — technique: RNA Bind-n-Seq; molecule type: RNA; medium: in vitro; concentration: 200 nM; notes: whole 134-nt RNA, ends assumed; added: 150 mM KCl; baseline: input library; direction: higher = stronger binding
Target: Ras GTPase-activating protein-binding protein 1, full length (G3BP1, Homo sapiens, UniProt Q13283)
UniProt Q13283, sequence (whole entry, looked up): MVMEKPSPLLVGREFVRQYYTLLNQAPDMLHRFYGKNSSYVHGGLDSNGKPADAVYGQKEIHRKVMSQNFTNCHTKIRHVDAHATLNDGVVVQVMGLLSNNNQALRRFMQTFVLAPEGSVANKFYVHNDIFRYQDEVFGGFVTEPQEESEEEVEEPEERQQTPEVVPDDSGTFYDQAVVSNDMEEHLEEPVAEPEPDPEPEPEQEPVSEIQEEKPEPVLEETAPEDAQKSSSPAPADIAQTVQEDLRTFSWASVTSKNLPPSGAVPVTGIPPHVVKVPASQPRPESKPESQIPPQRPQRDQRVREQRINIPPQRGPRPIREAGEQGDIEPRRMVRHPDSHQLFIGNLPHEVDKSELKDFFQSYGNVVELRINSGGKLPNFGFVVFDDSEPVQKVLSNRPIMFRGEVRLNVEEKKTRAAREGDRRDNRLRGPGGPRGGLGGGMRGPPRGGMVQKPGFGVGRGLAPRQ
Shared flanks, not repeated: GGGAGUUCUACAGUCCGACGAUC … UGGAAUUCUCGGGUGUCAAGG
Oligonucleotide | log2 enrichment
CAAGUCCUGUGCUACACAUCGUAUGUACCGAAUCGGUUUGGGUUUGGGUUUGGGGAAAGUAUUAUGUUACGCCGUUCGGAUCUGCACUUC | -0.403
UAACUUUAGAGGAGGAUGUGAUGGAUAUGGCAGUGGACGUGGAUUUGGGGAUGGCUAUAAUGGGUAUGGAGGAGGACCUGGAGGUGGCAA | 0.378
CCUGUGCUACACAUCGUAUGUACCGAAUCGGGGUUUUUUUGGGGUGGGGUUUUUUUGGGGAAAGUAUUAUGUUACGCCGUUCGGAUCUGC | 0.173
UCCUGUGCUACACAUCGUAUGUACCGAAUCGGGGAGGGGUUUUUGGGGAAAAAAAGGGGAAAGUAUUAUGUUACGCCGUUCGGAUCUGCA | 0.541
GUGCUACACAUCGUAUGUACCGAAUCGGGGUUUUUUUGGGGUUUUUUUGGGGUUUUUUUGGGGAAAGUAUUAUGUUACGCCGUUCGGAUC | -0.452
AAGUCCUGUGCUACACAUCGUAUGUACCGAAUCGGGAAAGGGAAAGGGGAAAGGGGAAAGUAUUAUGUUACGCCGUUCGGAUCUGCACUU | 0.356
AGGCCCUGGUGGCAUGCGGGGAGGAAGAGGUGGCCUCAUGGAUCGUGGUGGUCCCGGUGGAAUGUUCAGAGGUGGCCGUGGUGGAGACAG | 0.462
UCAAGUCCUGUGCUACACAUCGUAUGUACCGAAUCGGGGAAGGAAGGGAAGGGGAAAGUAUUAUGUUACGCCGUUCGGAUCUGCACUUCC | 0.41
AGUCCUGUGCUACACAUCGUAUGUACCGAAUCGGGGUGGGGAAAGGGGUUUUUGGGGAAAGUAUUAUGUUACGCCGUUCGGAUCUGCACU | 0.503

Study 2 — target: CCNB3, cyclin fold, Cln2 fusion (human); technique: yeast growth competition, sequencing; medium: yeast; notes: weak parent motif; baseline: not given; direction: higher = stronger binding
Starting sequence: RBL1 docking peptide (human); GSAKRRLFGEDPP; partner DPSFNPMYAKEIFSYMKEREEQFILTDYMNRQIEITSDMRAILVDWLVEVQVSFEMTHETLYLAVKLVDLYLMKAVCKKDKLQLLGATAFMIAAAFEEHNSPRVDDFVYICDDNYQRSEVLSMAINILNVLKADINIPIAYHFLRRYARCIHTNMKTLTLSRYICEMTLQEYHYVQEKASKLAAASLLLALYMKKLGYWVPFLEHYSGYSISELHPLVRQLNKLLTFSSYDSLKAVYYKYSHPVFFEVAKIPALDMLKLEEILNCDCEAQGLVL
Substitution | normalised enrichment score
GSAKRFLFGEDPP [R6F] | 0.823
GSAKRRLFGEDQP [P12Q] | 0.236
GSAKRRLFPEDPP [G9P] | 1.18
GSAKRILFGEDPP [R6I] | 1.04
GSAKRRLFGEDEP [P12E] | 1.21
GSPKRRLFGEDPP [A3P] | 0.769
GDAKRRLFGEDPP [S2D] | 0.175
GSAKRRLFCEDPP [G9C] | 1.27
GSAKRRLFAEDPP [G9A] | 1.34
GSAKRRHFGEDPP [L7H] | 0.413
DSAKRRLFGEDPP [G1D] | 0.671
GSAKRRLFQEDPP [G9Q] | 1.01
GSAKRRLFGRDPP [E10R] | 0.396
GSAKRRLFGEQPP [D11Q] | 0.469
FSAKRRLFGEDPP [G1F] | 1.72
GSAVRRLFGEDPP [K4V] | 0.817
GSAKWRLFGEDPP [R5W] | -0.121
GSAKRRLFWEDPP [G9W] | 1.14

Study 3 — technique: protein-binding microarray; molecule type: double-stranded DNA, one strand shown; medium: in vitro; concentration: 250 nM; notes: 60-bp whole probe; added: salmon DNA 0.4 mg/ml; baseline: random background probes; direction: higher = stronger binding; shared flanks, not repeated: GCCTAGCAC … GTCTTGATTCGCTTGACGCTGCTG
Target: Interferon regulatory factor 5, full length, phosphomimetic (IRF5, Homo sapiens, UniProt Q13568-2, residues 1-514, K96S/S451D/S453D/S456D/S462D)
Oligonucleotide | log fluorescence
GCTGGTCACTCTCTGGGCTGGTGCTAG | -0.614 z-score
TCATATATTTGCTTCAGACTGTGCTAG | 0.692 z-score
GAAGTAATTTCAAACCACAGGTGCTAG | 0.256 z-score
TTAGGTCTCGGTTTCGGTCAGTGCTAG | 7.88 z-score
GACGGACTTGGGTTTCGGGACGTGCTA | 1.94 z-score
GTCCACTCCAGACCGTTTGCGTGCTAG | -0.347 z-score
TTGAGTCTTCTCCTCTAGGTGTGCTAG | -0.227 z-score
TCACATCTCTCTTAAATACTGTGCTAG | 0.63 z-score
TTAAGTTTCGGTATCGGTTAGTGCTAG | 11.8 z-score
TTGGGTTTCGGTTTCGGTTAGTGCTAG | 11.4 z-score
GACGGACTGGGTTTCGGGCCGTGCTAG | 1.61 z-score

Study 4 — technique: protein binding microarray; molecule type: double-stranded DNA, one strand shown; medium: in vitro; concentration: not given; baseline: not given; direction: higher = stronger binding
Target: Histone acetyltransferase KAT6A, both winged helices, GST fusion (KAT6A, Homo sapiens, UniProt Q92794, residues 1-181)
Notes: 8-mer, flanks averaged, mean of 2 arrays, mostly near background
Construct (chain): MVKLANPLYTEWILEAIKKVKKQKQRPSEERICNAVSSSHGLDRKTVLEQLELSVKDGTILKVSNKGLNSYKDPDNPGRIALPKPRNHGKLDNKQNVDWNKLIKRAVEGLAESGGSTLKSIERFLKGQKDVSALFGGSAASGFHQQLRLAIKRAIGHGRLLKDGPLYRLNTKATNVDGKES
Oligonucleotide | E-score
CGCGTTGC | 0.29
ACCCTAAT | -0.276
ATTTACGA | 0.036
AGGGGCAG | -0.28
AGTAACCG | 0.0973
GTACTGCA | -0.0389
CCTGCCAG | -0.163
ACTCTTTA | -0.174
CCTTCTAA | -0.228
AAATGGTA | -0.148
AGGCTATA | -0.154
ACCCTCAG | -0.253
TACATCTA | -0.173
CGGTGCAA | 0.09
TCAAAGCA | -0.169
ATGAACCG | 0.142
TGACTGAA | -0.1
TATAGCCA | -0.0777
CATATTGA | -0.167
AACCGAAT | 0.0548
CCGAAGTA | -0.0067
GGGGTCTA | 0.00402
ATATCTAA | -0.138
ATCTCTAG | -0.137
CCTGACTC | -0.0254

Study 5 — technique: competition protein-binding microarray; molecule type: double-stranded DNA, one strand shown; medium: in vitro; concentration: 2 µM; added: Pho4 competitor, 0.05 µM; direction: higher = stronger binding; shared flanks, not repeated: … GTCTTGATTCGCTTGACGCTGCTG
Target: Centromere-binding protein 1, full length, His-tagged (CBF1, Saccharomyces cerevisiae, UniProt P17106, residues 1-351)
UniProt P17106, sequence (whole entry, looked up): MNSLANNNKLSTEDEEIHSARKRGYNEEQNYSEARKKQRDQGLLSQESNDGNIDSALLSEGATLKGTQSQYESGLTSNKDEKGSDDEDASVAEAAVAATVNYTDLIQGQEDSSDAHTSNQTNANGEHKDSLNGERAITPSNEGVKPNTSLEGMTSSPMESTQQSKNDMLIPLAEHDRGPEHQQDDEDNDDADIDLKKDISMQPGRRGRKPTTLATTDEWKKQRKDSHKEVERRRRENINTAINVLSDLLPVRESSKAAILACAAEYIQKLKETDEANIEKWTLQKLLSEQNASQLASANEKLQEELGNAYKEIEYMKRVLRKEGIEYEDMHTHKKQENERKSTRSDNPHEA
Notes: whole 60-bp probe, lowest competitor level
Oligonucleotide | fluorescence intensity [a.u.]
CGGGGTTAAGTTTGACCGGTGGGTGGCTTGCAGCAG | 63
GACCGAACGCCCAACATAAATTAGAATAAGTCGTCA | 62.2
AAGGAGGGTAAGACACACATGATAATCAATGTCGAA | 117
CTCCCTGGGCGGCTGCACGTGCTGGCTGGCTCCTCC | 956
CTTTCCCGATCTTACCACGTGTTTTTAGCACATTTG | 1380
AATCGTTAACACCGTCACCTGTCATTGCGCAGAACT | 126
AGCGAGCCGGCGGCAATCGTGGGACGCGATGGCACT | 64
CTTTCCCGATCTTGAGTAGTGGGTGTAGCACATTTG | 69.2
AGTGCTCATACGCATCATATGACATGGATGATACGG | 361
CTTTCCCGATCTTGGAGCGTGGGTGTAGCACATTTG | 66.9
GCGCTGCTGGTGGTGCCCGTGGTGAAGCCAAGGTCG | 51.5
CCGCCTAGCAAACACCTCGTGCCAGTCATTACCGAC | 180

Study 6 — technique: DHFR PCA, deep sequencing; medium: yeast; added: (+)-ABA 58 µM; baseline: wild-type fitted maximum; direction: higher = stronger binding
Target: ABI1, truncated, D143A, DHFR fusion (Arabidopsis thaliana)
Notes: methotrexate growth selection, single substitutions
Starting sequence: PYL1, truncated, DHFR fusion (Arabidopsis thaliana); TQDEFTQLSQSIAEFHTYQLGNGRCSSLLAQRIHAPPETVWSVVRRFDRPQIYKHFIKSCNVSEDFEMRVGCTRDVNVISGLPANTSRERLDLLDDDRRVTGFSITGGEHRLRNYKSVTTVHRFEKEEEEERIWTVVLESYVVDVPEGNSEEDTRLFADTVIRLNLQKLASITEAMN
Substitution | relative binding score [%]
V44P | -37.5
F5Y | 80.1
I133H | 99.4
T101S | 69.8
L169G | -3.14
H110G | 26.9
D144L | 29.7
S11V | 93.2
K116W | -1.68
S42D | 91.1
A30G | 81
A170L | 36.5
N77I | 87.3
T6D | 92.6

Study 7 — technique: RNA Bind-n-Seq; molecule type: RNA; medium: in vitro; concentration: not given; baseline: input RNA pool; direction: higher = stronger binding
Target: RING finger protein unkempt homolog, zinc fingers 1-6, GST-SBP tag (UNK, Homo sapiens, UniProt Q9C0B0, residues 30-357)
UniProt Q9C0B0, sequence (30-357, looked up): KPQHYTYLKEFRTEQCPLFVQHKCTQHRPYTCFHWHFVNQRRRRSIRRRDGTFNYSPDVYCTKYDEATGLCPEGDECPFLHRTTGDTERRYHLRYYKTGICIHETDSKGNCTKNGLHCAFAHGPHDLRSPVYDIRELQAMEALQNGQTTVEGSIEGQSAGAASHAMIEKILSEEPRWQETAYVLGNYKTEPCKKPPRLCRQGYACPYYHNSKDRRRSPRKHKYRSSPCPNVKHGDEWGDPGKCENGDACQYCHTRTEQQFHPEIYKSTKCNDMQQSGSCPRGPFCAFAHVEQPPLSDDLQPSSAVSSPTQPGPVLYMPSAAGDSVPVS
Notes: RNA with constant flanks, human and mouse sites, ends assumed
Shared flanks, not repeated: GGGAGUUCUACAGUCCGACGAUC … CAACAGAGGAUUGAGCAUCA
Oligonucleotide | bound/input enrichment [ratio]
AGGAGUAGCUCUGUUUCCACUAUUGACACUGCCCGGCUGAUUCAAGCUUUUGGCCAUGAAAGAGUAUGCUUGUCACCCAGACGAAUUAAAUUAUAUAGCAGCAUCACCAACCAACAGAGG | 0.603
AACAGGAUCAGUUAAUUAUUCCAUUUAUACCUACUGUAGGCUUUUUAUUCAACAGUUAUCUGUAGCUUAAGUACAUGAUAGGCAAAAACAAAGAGAAAAGAAAUGUUUUUGUAGUAGUGG | 2.45
AAAACGCCAAUUCGCAACAGAGCCUUUUACAUGGAAGAAGGGGCCCCCUACUGCGAGCGAGACUAUGAGAAGAUGUUUGGCACAAAAUGUCGAGGCUGUGACUUCAAGAUUGAUGCUGGA | 0.13
CGCCCCGCGGGUUUUUUCCUUUUUUCCUUUUGCUUUUUUUCCUUUUCUCCCUCCGGGUCUCCUUUUUGACUCCCUCCCCCUUUAUGCUCGCCCAGCCCUCCCCCUGCUGCUGAGAAGUGG | 1.92
GGUUGUUUCAAUCUAACAGUCAAAGGUCAUGCUAAAUGUGUAGAAGUUGUAAAAACUUUUAACUUACCAUUACUGAUGCUUGGAGGAGGUGGCUACACAAUCCGUAAUGUUGCUCGAUGU | 0.249
GGGUAUGGCAAUCCCCGAAACUCACCAGGUCUGCUGGUCUCACCUGGUAACUUGAACAAGAAUAUGCAAGCAAAAUCUCCUCCCCCAAUGAAUUUAGGAAUGAAUAACCGUAAACCAGAU | 2.27
UGAAGUGGUUUUUGUGGGUGUGAAACAAAUGGUGAGAAUUUGAAUUGGUCCCUCUUAUUAUAGUAUUGAAAUUAAGUCUACUUAAUUUAUCAAGUCAUGUUCAUGCCCUGAUUUUAUAUA | 3.47

For quick reference, copied from above (study 4):
Oligonucleotide | E-score
ATTTACGA | 0.036
AGGGGCAG | -0.28
AGTAACCG | 0.0973
GTACTGCA | -0.0389
CCTGCCAG | -0.163
ACTCTTTA | -0.174
CCTTCTAA | -0.228
